Measured values pooled from the literature.
Lines come from different studies, so protocols differ.
Cell line: Vero E6

Structure (SMILES)	test	conditions	scale	measurement	result
N=C(N)NCCCCC(=O)N[C@@H](CCC(N)=O)C(=O)N[C@@H](CCc1ccccc1)C(=O)N[C@@H](CCCNC(=N)N)C(=O)c1nc2ccccc2s1	CellTiter-Glo	10 µM, 24 h	relative to: DMSO	cytotoxicity	not toxic
C=C[C@@](C)(/C=C/c1ccc(O)cc1)CCC=C(C)C		12.5 µM		cytotoxicity	0%
COc1ccc2cc1Oc1ccc(cc1)C[C@H]1c3cc(c(OC)cc3CCN1C)Oc1c(OC)c(OC)cc3c1[C@H](C2)N(C)CC3	cell number	40 (unit not given)		CC50	> 2.5 µM
CC(C)=CCc1c(O)ccc(C(=O)/C=C/c2ccc(O)cc2)c1O		6.25 µM		cytotoxicity	0%
C1=C(c2ccc(CN3CCCCC3)cc2)N2CCN=C2c2ccccc21	cell number	40 (unit not given)		CC50	> 2.5 µM
CCN(CC)CCCC(C)Nc1ccnc2cc(Cl)ccc12 (stereo not shown)		concentration not given, 4 (unit not given), added: verapamil		unbound fraction in cells	0.00023
Cc1cccc(/C=N/Nc2cc(N3CCOCC3)nc(OCCc3ccccn3)n2)c1	cell number	40 (unit not given)		CC50	~2.5 µM
Cc1nn(-c2ccc(Cl)cc2)c2c1C(c1ccc(Cl)c(Cl)c1)C(C#N)=C(N)O2 (stereo not shown)	MTT	25 µM		viability	56.4%
Cc1oc(-c2cccc(Cl)c2)nc1CN1CCCC(C(=O)NCCc2ccc(Cl)cc2)C1 (stereo not shown)	cytotoxicity, CellTiter-Glo	retest 8-point, no virus		AC50	14.1 µM
CCC(CC)COC(=O)[C@H](C)N[P@](=O)(OC[C@H]1O[C@@](C#N)(c2ccc3c(N)ncnn23)[C@H](O)[C@@H]1O)Oc1ccccc1		concentration not given, 4 (unit not given), added: verapamil		unbound fraction in cells	0.0014
O=C(/C=C/c1ccc(O)c(O)c1/C=C/c1ccc(O)c(O)c1)O[C@H](Cc1ccc(O)c(O)c1)C(=O)O		6.25 µM		cytotoxicity	0%
Cc1ccc(C)c(Nc2cc(C(=O)NCCCN(C)C3CCCCC3)c3ccccc3n2)c1	cytotoxicity, CellTiter-Glo	retest 8-point, no virus		AC50	14.1 µM
CC[C@H](NC(=O)[C@H](CS(=O)(=O)CC1CC1)N[C@@H](c1ccc(F)cc1)C(F)(F)F)C(=O)C(=O)NC1CC1	cell number	40 (unit not given)		CC50	> 2.5 µM
Cc1nn(-c2ccc(Cl)cc2)c2c1C(c1ccc(Cl)cc1)C(C#N)=C(N)O2 (stereo not shown)	MTT	25 µM		viability	52.9%
CC(C)(C)OC(=O)N[C@H]1CCCCC/C=C\[C@@H]2C[C@@]2(C(=O)NS(=O)(=O)C2CC2)NC(=O)[C@@H]2C[C@@H](OC(=O)N3Cc4cccc(F)c4C3)CN2C1=O	cell viability, MTT	48 (unit not given)		CC50	> 50 µM
C[C@@H]1CN(c2ncc(C(O)CO)cc2Cl)CCN1c1nc2c(-c3cc(F)c(F)c(F)c3)cc(C(F)(F)F)cc2[nH]1 (stereo partly shown)	cell number	40 (unit not given)		CC50	> 2.5 µM
CCc1ccc(Sc2cc(C(=O)NCCCN3CCC(C)CC3)c3ccccc3n2)cc1	cytotoxicity, CellTiter-Glo	retest 8-point, no virus		AC50	14.1 µM
CCN(CCO)CCCC(C)Nc1ccnc2cc(Cl)ccc12 (stereo not shown)		added: verapamil		intracellular fraction	0.469
CCNC/C=C\CNCCCCNCCCCNC/C=C\CNCC	cell number	40 (unit not given)		CC50	> 2.5 µM
O=C(O[C@@H]1Cc2c(O)cc(O)cc2O[C@@H]1c1cc(O)c(O)c(O)c1)c1cc(O)c(O)c(O)c1		12.5 µM		cytotoxicity	0%
CCC(CC)COC(=O)[C@H](C)N[P@](=O)(OC[C@H]1O[C@@](C#N)(c2ccc3c(N)ncnn23)[C@H](O)[C@@H]1O)Oc1ccccc1	cell number	40 (unit not given)		CC50	> 2.5 µM
C=C[C@@H]1C[C@]1(NC(=O)[C@@H]1C[C@@H]2CN1C(=O)[C@H](C(C)(C)C)NC(=O)O[C@@H]1C[C@H]1CCCCCc1nc3ccc(OC)cc3nc1O2)C(=O)NS(=O)(=O)C1CC1	cell viability, MTT			CC50	> 50 µM
COc1ccc(C[C@@H]2c3cc(Oc4cc(C[C@@H]5c6cc(O)c(OC)cc6CCN5C)ccc4O)c(OC)cc3CCN2C)cc1		6.25 µM		cytotoxicity	0%
C=C[C@@H]1C[C@]1(NC(=O)[C@@H]1C[C@@H](Oc2ncc(OC)c3ccc(Cl)cc23)CN1C(=O)[C@@H](NC(=O)OC(C)(C)C)C(C)(C)C)C(=O)NS(=O)(=O)C1CC1	cell viability, MTT	48 (unit not given)		CC50	48.9 µM
COc1ccc(CCN2CCC(Nc3nc4ccccc4n3Cc3ccc(F)cc3)CC2)cc1	cell number	40 (unit not given)		CC50	> 2.5 µM

A few entries again:
Structure (SMILES)	test	conditions	scale	measurement	result
Cc1ccc(C)c(Nc2cc(C(=O)NCCCN(C)C3CCCCC3)c3ccccc3n2)c1	cytotoxicity, CellTiter-Glo	retest 8-point, no virus		AC50	14.1 µM
COc1ccc(C[C@@H]2c3cc(Oc4cc(C[C@@H]5c6cc(O)c(OC)cc6CCN5C)ccc4O)c(OC)cc3CCN2C)cc1		6.25 µM		cytotoxicity	0%
